Results from different studies.
Numbered parts are unrelated; each lists some results of a single study.
Chain of UniProt Q8WTQ7 (whole entry, looked up): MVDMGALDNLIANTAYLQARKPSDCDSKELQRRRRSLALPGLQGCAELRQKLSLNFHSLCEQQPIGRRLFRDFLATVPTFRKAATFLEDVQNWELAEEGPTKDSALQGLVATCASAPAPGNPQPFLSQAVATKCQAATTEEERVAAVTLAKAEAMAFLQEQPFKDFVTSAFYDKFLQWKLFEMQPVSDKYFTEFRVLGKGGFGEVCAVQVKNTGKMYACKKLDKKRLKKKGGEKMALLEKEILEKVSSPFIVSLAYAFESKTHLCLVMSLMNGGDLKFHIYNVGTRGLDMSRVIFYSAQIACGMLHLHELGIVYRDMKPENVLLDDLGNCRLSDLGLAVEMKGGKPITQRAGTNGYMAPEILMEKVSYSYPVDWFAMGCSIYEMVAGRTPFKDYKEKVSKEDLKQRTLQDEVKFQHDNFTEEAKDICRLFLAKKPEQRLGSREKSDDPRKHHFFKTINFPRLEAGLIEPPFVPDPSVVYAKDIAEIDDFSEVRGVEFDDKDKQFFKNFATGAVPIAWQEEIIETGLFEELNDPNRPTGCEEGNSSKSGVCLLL
Chain of UniProt P30291 (whole entry, looked up): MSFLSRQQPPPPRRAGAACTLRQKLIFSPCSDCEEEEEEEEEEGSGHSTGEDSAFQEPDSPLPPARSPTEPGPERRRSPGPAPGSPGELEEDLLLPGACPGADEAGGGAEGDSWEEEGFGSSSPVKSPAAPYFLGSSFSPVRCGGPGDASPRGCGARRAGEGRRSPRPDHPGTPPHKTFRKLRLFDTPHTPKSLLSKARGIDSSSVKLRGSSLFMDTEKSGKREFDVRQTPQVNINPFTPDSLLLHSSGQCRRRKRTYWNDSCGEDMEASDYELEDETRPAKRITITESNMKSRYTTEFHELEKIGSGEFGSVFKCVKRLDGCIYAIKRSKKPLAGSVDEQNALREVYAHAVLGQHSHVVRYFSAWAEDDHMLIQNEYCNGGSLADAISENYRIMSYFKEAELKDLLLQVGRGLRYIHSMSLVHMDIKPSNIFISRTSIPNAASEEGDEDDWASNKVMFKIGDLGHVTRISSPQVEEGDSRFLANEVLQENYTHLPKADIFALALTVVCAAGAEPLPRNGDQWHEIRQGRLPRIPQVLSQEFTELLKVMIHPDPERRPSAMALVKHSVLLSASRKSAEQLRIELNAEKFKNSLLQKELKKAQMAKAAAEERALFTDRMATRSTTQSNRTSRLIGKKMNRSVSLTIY
Chain of UniProt Q8IYT8 (whole entry, looked up): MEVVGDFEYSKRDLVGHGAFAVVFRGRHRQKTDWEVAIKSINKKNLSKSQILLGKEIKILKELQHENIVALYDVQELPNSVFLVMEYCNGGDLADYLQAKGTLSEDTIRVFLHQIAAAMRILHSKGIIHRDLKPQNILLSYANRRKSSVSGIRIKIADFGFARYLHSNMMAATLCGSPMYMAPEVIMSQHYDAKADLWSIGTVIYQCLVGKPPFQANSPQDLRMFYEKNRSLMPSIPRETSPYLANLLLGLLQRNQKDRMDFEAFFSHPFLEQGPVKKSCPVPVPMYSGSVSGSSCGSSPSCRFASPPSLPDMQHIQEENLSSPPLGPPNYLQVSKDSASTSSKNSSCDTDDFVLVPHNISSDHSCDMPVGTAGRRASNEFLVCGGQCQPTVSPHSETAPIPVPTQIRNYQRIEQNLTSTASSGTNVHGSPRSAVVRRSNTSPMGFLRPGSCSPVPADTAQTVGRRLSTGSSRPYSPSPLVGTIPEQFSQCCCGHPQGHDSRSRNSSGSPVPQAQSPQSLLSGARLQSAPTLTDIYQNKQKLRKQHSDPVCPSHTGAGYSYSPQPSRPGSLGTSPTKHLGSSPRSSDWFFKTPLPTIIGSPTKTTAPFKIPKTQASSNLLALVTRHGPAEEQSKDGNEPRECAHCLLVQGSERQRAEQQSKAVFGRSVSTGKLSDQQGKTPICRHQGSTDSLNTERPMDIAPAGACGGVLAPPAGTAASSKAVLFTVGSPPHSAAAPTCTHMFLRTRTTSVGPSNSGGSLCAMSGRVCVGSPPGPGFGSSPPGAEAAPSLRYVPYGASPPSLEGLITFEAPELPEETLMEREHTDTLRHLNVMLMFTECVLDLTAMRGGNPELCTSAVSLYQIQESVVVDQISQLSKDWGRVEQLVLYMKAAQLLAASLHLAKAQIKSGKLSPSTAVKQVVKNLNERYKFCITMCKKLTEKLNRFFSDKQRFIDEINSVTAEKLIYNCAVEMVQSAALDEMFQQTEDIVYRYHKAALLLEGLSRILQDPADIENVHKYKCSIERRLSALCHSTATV
Chain of UniProt P78368 (whole entry, looked up): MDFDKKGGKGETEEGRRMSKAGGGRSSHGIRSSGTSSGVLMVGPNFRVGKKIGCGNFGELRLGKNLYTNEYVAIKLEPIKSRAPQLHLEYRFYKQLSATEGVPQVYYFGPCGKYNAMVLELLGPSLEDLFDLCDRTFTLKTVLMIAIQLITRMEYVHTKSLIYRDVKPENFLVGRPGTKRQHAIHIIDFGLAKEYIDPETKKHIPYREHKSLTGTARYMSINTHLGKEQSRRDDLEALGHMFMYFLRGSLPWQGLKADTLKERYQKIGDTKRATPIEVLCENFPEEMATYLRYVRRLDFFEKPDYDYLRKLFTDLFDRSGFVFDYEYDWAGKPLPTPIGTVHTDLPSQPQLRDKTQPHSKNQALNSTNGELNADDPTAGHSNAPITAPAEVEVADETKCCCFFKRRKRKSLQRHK
Chain of UniProt P49137 (whole entry, looked up): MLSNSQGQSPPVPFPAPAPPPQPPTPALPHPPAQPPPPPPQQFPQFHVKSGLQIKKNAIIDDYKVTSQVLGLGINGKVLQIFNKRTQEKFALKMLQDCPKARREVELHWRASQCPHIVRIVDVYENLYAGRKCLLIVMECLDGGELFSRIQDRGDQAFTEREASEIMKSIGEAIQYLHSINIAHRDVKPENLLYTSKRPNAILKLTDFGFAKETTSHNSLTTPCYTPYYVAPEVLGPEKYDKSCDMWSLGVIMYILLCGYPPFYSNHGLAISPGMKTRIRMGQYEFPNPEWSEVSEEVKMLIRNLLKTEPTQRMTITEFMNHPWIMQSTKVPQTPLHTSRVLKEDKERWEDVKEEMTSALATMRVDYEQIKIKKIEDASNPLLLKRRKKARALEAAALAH
Chain of UniProt Q99558 (whole entry, looked up): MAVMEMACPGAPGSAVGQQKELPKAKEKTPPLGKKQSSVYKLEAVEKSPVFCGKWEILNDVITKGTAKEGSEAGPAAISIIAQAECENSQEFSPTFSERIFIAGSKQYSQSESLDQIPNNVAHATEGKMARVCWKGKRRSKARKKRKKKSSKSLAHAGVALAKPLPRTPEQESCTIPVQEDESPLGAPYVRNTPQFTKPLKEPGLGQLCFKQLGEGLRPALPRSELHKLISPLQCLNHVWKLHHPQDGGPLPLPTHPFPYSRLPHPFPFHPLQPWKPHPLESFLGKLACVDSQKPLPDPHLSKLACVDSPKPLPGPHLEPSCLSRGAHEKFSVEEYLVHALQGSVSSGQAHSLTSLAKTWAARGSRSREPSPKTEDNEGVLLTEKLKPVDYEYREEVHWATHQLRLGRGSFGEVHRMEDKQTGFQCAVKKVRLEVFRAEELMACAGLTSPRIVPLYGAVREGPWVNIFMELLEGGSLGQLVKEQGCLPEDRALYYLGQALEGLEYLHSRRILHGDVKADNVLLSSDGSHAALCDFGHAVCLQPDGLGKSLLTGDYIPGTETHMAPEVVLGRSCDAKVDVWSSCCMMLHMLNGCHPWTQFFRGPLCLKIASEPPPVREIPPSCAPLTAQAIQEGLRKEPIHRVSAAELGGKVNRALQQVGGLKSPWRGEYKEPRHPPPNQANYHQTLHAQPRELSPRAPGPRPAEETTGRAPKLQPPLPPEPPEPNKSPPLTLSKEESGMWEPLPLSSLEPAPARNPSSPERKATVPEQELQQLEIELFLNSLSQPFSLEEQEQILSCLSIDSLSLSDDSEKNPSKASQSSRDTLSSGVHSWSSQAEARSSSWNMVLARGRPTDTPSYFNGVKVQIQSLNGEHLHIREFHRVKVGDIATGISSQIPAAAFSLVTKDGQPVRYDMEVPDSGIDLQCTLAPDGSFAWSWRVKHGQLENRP

Block 1
Target: Sal-like protein 4, full length isoform A (SALL4, Homo sapiens, UniProt Q9UJQ4, residues 1-1053)
Chain of UniProt Q9UJQ4 (whole entry, looked up): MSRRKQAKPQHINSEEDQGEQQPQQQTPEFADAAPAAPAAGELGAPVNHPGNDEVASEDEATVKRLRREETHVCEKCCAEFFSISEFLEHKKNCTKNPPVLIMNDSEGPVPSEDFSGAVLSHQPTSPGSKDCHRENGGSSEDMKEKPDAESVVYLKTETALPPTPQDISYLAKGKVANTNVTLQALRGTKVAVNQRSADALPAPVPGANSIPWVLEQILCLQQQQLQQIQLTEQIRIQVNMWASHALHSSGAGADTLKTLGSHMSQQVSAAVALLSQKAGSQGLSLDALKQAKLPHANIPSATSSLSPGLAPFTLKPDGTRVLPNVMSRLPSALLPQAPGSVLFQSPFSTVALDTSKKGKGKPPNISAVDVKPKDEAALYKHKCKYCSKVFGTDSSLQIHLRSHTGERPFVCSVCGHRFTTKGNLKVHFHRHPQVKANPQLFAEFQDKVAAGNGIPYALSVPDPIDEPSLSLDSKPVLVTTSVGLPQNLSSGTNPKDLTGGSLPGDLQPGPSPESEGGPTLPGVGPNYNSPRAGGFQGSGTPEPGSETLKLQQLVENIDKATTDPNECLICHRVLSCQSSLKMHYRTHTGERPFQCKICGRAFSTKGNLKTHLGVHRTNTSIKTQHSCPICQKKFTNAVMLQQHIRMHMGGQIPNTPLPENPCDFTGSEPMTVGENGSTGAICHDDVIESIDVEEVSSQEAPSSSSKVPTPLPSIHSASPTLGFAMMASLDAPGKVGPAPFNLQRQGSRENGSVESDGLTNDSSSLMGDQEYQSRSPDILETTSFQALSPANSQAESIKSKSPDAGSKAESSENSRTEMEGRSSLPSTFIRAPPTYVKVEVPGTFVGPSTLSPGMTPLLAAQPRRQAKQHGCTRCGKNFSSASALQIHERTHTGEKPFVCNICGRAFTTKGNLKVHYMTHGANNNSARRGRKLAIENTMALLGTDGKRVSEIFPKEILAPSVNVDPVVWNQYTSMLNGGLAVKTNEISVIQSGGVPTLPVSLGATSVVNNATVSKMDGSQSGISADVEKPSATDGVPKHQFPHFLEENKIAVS
Method: universal PBM
Molecule type: double-stranded DNA, one strand shown
Matrix: in vitro
Concentration: 600 nM
Notes: 8-mer, flanks averaged, mean of replicates
Direction: higher = stronger binding
Strand	E-score
CTGCCCCC	-0.281
GGAGCCAA	-0.107
CTATAGCA	0.188
CGACATGC	-0.0127
AGAAATAC	0.101
CACTCAGC	-0.22
CTCTGCGC	-0.322
AGGGATTA	0.111

Block 2
SMILES: COc1cccc(CNC(=O)c2nc3scc(COCc4ccc(C(=O)O)cc4)c3c(=O)[nH]2)c1
Read-out: cell-free assay
Method: competition with immobilised ligand
Concentration: 1 µM
target	remaining binding
Tyrosine-protein kinase JAK1, JH2 (JAK1, Homo sapiens, UniProt P23458)	76%
MAP3K7 (Homo sapiens, UniProt O43318)	60.2%
CDK11B (Homo sapiens, UniProt P21127)	85.4%
FES (Homo sapiens, UniProt P07332)	94.5%

Block 3
Structure (SMILES): O=C1c2ccccc2-c2nc3nnnn3nc21
Read-out: enzyme activity
Action: inhibitor
Concentration: 0.5 µM
Relative to: control
target	remaining activity [%]
TAOK2 (Homo sapiens, UniProt Q9UL54)	91.9
JAK3 (Homo sapiens, UniProt P52333)	90.4
EPHA3 (Homo sapiens, UniProt P29320)	81.6
MAPKAPK2 (Homo sapiens, UniProt P49137)	104
RPS6KA2 (Homo sapiens, UniProt Q15349)	89.1
MAPK3 (Homo sapiens, UniProt P27361)	87
NEK1 (Homo sapiens, UniProt Q96PY6)	46.3
GRK7 (Homo sapiens, UniProt Q8WTQ7)	78.1
MAP3K14 (Homo sapiens, UniProt Q99558)	124
WEE1 (Homo sapiens, UniProt P30291)	70.9
CSNK1G2 (Homo sapiens, UniProt P78368)	82.2
ULK2 (Homo sapiens, UniProt Q8IYT8)	105
MAP3K5 (Homo sapiens, UniProt Q99683)	106

Block 4
Target: Hepatocyte nuclear factor 3-alpha (Foxa1, Mus musculus, UniProt P35582, residues 1-468, full length assumed)
Method: EMSA with sequencing
Molecule type: double-stranded DNA, one strand shown
Matrix: in vitro
Concentration: 10 and 20 nM
Notes: whole designed probe, mean of two concentrations, ends assumed
Relative to: negative control set to 0
Direction: higher = stronger binding
All sequences stand within: GTGAGCGGTGCCCATTGATGGGGAAC … TTTCACTGGGATCGTGGGGAC
Residues (chain): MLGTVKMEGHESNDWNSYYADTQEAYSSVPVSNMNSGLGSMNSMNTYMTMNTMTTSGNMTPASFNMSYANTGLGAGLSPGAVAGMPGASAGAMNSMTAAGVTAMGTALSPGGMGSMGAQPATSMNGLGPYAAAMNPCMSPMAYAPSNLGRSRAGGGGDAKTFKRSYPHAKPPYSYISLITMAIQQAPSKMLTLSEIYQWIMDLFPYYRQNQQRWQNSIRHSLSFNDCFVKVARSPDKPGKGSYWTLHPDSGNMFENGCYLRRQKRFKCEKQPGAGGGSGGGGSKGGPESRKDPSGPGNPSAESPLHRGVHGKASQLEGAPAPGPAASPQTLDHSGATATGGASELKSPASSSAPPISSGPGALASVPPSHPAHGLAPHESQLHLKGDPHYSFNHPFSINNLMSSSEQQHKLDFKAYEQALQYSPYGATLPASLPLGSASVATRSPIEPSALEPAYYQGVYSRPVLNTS
Strand	normalised bound fraction
ATTTTATTTGCTACAACAAGCAAGAAGGCTGAGGTTTATTGAGCAATAGCTGGGTTTTGTCAAACTTGCTTAAGGATTGCCTAAGACCAGCAAAATAAACATGATAAAGTTGAAGAATGACCAGTTTTCCACTCTGCTGTGTTTGGAGGCTGACGAAACTGTCATTGACAAAATTGCCCTGATGGGACTGTTT	0.234 ratio
ATCTTCCCCCTCTTCCTTGCCCCACCAGCTCACCTTCCCGGGTATATTGGAGATAGGAAATTAATATAAGCCGGCATTCGTTAACCCTCTTCACGCGCATACTGCCAAAGTAAACAGATCTAACATGGTCCTTTGGCGACGCCAGGCTCCGGGAGAGCAAAGCACCGTGTCAGGGCCATGATCCGGGGTGGCC	0.419 ratio
TAAAAGCATCCTGTGAATCAAAAGAAGATGGCAGATTTTCTGAATACTACTAAGGACTTCATTTAGCATATGCACAATCCTATTAAAAGAAAAAGTAAACAAGTAAATAAGCAAAAATGTATTATCATCCTTCCTGTGTCAAGAGAGTACTCCATTTATACAGCCATAGAAAACTGCAATGAAGATAGGTAAT	0.423 ratio
ATCTTCCCCCTCTTCCTTGCCCCACCAGCTCACCTTCCCGGGTTGTTTACTTTGAGTATTTATTTTCAAGCCGGCATTCGTTAACCCTCTTCTGGCGCAAACTGCTGTTTACTTTGGATGAATCATGGTCCTTTGGCGACGCCAGGCTCCGGGAGAGCAAAGCACCGTGTCAGGGCCATGATCCGGGGTGGCC	0.454 ratio
ATGAAGGGCTGCCAGTGTAATTTGAACCTCAAATAAACAACAGATAAAACTGTAGTATAAGTATGTCCCATATTGCACAACATACGATCTTTTTGTTTGCCTAATCTGGCAAAGATATTGACTTAACACACACTAATCTGTTGACAGGTAGGTGAAATATTTGAACTTCTACGTTGCTTCTCTAATCCTGTCC	0.393 ratio

Mixed results
Method: cross-linking MS
Substance	partner	matrix	notes	together with	endpoint	result
SNRPA1 (Homo sapiens, UniProt P09661)	SF3A1 (Homo sapiens, UniProt Q15459)		hits only		interaction screen	cross-linked
PSMG1 (Homo sapiens, UniProt O95456)	PSMA1 (Homo sapiens, UniProt P25786)		hits only		interaction screen	cross-linked
YBX1 (Homo sapiens, UniProt P67809)	C1QBP (Homo sapiens, UniProt Q07021)	cell fractions		DSSO	cross-linked residues	K296 to K104

For quick reference, copied from above (block 4):
Strand	normalised bound fraction
ATTTTATTTGCTACAACAAGCAAGAAGGCTGAGGTTTATTGAGCAATAGCTGGGTTTTGTCAAACTTGCTTAAGGATTGCCTAAGACCAGCAAAATAAACATGATAAAGTTGAAGAATGACCAGTTTTCCACTCTGCTGTGTTTGGAGGCTGACGAAACTGTCATTGACAAAATTGCCCTGATGGGACTGTTT	0.234 ratio
ATCTTCCCCCTCTTCCTTGCCCCACCAGCTCACCTTCCCGGGTTGTTTACTTTGAGTATTTATTTTCAAGCCGGCATTCGTTAACCCTCTTCTGGCGCAAACTGCTGTTTACTTTGGATGAATCATGGTCCTTTGGCGACGCCAGGCTCCGGGAGAGCAAAGCACCGTGTCAGGGCCATGATCCGGGGTGGCC	0.454 ratio
ATCTTCCCCCTCTTCCTTGCCCCACCAGCTCACCTTCCCGGGTATATTGGAGATAGGAAATTAATATAAGCCGGCATTCGTTAACCCTCTTCACGCGCATACTGCCAAAGTAAACAGATCTAACATGGTCCTTTGGCGACGCCAGGCTCCGGGAGAGCAAAGCACCGTGTCAGGGCCATGATCCGGGGTGGCC	0.419 ratio
TAAAAGCATCCTGTGAATCAAAAGAAGATGGCAGATTTTCTGAATACTACTAAGGACTTCATTTAGCATATGCACAATCCTATTAAAAGAAAAAGTAAACAAGTAAATAAGCAAAAATGTATTATCATCCTTCCTGTGTCAAGAGAGTACTCCATTTATACAGCCATAGAAAACTGCAATGAAGATAGGTAAT	0.423 ratio
